Measurements of several laboratories.
Parts stem from different laboratories: compare values within a part only. Positions count from the first letter of the parent shown.
Chain of UniProt Q9UHD2 (whole entry, looked up): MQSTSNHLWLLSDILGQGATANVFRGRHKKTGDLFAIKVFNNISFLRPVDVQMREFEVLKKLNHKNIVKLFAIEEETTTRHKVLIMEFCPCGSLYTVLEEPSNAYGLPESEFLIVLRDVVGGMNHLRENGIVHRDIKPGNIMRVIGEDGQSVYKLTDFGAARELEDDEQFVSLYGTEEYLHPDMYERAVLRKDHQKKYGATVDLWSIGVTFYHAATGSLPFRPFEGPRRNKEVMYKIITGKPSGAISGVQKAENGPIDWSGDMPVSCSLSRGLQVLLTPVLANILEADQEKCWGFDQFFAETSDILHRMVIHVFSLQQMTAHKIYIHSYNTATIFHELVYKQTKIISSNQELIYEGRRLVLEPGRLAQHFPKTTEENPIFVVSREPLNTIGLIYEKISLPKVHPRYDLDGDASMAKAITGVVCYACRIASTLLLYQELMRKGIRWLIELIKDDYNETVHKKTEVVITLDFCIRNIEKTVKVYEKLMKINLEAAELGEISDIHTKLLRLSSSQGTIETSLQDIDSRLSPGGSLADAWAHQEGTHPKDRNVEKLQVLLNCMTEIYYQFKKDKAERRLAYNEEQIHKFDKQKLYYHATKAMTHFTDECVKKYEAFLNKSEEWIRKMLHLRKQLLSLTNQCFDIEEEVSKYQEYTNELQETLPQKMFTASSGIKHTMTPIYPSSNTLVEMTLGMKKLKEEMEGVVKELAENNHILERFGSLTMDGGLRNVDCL
Chain of UniProt Q12866 (whole entry, looked up): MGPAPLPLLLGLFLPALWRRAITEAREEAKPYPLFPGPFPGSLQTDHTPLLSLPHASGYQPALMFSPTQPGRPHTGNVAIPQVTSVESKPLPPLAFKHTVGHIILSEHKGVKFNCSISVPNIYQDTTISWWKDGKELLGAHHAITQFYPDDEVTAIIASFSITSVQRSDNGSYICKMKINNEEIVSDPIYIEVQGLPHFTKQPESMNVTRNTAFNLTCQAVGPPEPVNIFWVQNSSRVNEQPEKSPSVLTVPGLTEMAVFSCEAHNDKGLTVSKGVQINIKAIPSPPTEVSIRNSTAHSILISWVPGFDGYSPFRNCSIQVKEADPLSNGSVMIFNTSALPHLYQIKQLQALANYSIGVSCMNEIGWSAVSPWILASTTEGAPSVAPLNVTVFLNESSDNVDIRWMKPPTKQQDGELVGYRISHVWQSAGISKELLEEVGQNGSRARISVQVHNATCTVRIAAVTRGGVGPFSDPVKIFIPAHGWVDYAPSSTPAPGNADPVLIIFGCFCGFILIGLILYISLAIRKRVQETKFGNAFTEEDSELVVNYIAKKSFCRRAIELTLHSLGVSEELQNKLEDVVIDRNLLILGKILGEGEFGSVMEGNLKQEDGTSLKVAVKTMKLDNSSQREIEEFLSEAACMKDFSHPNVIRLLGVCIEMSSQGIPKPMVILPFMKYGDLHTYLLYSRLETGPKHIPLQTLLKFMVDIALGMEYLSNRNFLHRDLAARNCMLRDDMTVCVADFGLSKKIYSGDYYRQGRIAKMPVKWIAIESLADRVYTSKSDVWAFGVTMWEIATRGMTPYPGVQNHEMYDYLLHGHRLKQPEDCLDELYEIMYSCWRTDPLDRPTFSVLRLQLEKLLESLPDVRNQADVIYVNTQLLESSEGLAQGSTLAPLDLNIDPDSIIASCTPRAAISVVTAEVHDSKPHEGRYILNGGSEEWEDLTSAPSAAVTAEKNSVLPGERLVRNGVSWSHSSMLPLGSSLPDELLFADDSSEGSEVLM
Chain of UniProt P10398 (whole entry, looked up): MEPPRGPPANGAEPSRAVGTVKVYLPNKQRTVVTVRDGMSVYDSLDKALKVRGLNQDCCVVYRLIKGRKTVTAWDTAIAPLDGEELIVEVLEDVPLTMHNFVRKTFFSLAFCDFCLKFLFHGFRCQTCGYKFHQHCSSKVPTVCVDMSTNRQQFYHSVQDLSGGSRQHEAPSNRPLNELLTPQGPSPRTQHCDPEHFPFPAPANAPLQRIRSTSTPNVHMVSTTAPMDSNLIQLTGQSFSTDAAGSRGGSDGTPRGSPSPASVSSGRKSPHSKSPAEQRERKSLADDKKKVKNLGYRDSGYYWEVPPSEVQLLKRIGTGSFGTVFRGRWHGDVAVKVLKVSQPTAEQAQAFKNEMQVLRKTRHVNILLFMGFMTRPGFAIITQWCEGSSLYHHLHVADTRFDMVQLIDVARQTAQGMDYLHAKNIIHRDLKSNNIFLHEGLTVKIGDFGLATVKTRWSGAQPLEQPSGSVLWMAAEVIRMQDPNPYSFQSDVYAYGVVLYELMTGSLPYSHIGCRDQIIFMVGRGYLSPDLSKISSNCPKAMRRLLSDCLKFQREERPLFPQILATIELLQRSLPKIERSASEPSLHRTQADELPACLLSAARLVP
Chain of UniProt Q9ZSY8 (whole entry, looked up): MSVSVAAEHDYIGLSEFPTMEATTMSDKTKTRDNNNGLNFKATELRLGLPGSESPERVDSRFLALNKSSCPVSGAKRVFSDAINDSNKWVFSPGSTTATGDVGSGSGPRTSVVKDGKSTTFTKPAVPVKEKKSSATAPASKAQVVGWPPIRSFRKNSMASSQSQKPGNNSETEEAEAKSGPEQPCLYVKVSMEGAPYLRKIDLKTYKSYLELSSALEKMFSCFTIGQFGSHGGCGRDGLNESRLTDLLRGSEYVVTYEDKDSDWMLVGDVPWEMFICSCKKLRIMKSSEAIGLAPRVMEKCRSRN
Chain of UniProt O24408 (whole entry, looked up): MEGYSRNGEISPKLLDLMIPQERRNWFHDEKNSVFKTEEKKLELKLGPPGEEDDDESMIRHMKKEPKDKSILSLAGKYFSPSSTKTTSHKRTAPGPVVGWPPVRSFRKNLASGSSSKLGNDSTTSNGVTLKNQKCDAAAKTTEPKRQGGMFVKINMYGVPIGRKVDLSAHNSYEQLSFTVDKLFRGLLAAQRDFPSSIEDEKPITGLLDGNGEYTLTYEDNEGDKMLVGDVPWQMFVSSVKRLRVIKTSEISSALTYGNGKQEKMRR
Chain of UniProt Q93WC4 (whole entry, looked up): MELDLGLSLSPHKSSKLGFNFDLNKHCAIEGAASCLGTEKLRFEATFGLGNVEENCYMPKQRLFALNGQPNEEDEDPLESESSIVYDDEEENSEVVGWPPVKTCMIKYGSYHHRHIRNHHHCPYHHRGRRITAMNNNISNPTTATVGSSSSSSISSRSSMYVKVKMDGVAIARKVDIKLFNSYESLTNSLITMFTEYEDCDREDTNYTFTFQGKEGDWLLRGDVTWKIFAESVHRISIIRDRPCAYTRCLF
Chain of UniProt P93830 (whole entry, looked up): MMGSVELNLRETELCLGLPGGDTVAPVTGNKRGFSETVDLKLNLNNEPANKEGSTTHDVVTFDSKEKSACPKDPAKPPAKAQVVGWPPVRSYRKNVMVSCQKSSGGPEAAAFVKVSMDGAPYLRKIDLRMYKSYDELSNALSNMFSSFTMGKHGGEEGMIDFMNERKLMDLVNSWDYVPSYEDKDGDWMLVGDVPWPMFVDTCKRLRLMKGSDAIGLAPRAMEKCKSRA
Chain of UniProt Q52WX2 (whole entry, looked up): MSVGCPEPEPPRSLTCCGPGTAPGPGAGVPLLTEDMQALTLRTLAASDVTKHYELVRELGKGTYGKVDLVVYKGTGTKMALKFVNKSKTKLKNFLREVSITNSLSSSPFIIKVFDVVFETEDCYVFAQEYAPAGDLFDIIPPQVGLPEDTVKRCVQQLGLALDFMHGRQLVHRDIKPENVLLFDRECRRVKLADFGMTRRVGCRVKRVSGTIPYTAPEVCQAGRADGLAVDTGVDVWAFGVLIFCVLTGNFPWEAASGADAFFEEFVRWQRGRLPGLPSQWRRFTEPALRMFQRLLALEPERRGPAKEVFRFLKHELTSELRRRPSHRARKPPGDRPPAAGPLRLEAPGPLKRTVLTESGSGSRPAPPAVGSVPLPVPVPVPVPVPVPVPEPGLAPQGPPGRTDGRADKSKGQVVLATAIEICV
Chain of UniProt P49137 (whole entry, looked up): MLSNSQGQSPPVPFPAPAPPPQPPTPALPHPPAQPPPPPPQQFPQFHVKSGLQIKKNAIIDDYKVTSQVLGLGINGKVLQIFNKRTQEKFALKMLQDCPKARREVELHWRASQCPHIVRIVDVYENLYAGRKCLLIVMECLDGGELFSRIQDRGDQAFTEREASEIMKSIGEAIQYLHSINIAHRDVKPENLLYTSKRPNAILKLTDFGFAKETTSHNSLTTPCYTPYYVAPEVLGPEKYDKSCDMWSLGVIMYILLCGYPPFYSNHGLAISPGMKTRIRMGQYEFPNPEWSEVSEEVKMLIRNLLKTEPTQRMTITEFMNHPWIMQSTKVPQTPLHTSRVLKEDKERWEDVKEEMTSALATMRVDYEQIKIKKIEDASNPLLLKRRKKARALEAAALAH
Chain of UniProt P27361 (whole entry, looked up): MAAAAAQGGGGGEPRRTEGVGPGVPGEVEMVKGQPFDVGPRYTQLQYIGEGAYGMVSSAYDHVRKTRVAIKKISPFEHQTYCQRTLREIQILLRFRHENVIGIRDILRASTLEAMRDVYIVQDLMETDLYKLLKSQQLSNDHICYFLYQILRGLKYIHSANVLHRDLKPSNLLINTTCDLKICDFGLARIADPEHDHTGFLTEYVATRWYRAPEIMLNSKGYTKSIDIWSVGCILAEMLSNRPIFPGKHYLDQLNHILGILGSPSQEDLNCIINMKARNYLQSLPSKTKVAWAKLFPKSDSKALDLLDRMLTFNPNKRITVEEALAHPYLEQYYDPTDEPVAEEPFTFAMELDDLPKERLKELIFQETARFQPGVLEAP

Block 1
SMILES: CS(=O)(=O)NCC[C@H](NC(=O)c1cncc2c1cnn2-c1ccc(F)cc1)c1ccnc(S(C)(=O)=O)c1
Observed: cell-free assay
Method: competition with immobilised ligand
Concentration: 1 µM
Quantity: remaining binding
CSNK1A1L (Homo sapiens, UniProt Q8N752): 94%
AKT2 (Homo sapiens, UniProt P31751): 100%
MAP2K1 (Homo sapiens, UniProt Q02750): 100%
SBK1 (Homo sapiens, UniProt Q52WX2): 96%

Block 2
Molecule: IAA8 (Arabidopsis thaliana, UniProt Q38826)
Chain of UniProt Q38826 (whole entry, looked up): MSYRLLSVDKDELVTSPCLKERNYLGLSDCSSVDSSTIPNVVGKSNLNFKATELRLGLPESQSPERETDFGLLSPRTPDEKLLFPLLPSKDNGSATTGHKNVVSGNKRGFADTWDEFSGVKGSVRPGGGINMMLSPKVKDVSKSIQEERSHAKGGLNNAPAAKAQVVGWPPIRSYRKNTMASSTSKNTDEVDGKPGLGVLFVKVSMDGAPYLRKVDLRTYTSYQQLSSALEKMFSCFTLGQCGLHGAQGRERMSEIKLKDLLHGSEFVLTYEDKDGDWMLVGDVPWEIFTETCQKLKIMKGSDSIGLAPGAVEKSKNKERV
Method: two-hybrid
Reading: higher = firmer interaction
Quantity: positive tests
IAA20 (Arabidopsis thaliana, UniProt O24410); weak activation fusion; baseline: out of 4 tests: 2
IAA18 (Arabidopsis thaliana, UniProt O24408); baseline: out of 4 tests: 4
IAA27 (Arabidopsis thaliana, UniProt Q9ZSY8); baseline: out of 4 tests: 4
IAA26 (Arabidopsis thaliana, UniProt Q8LAL2); baseline: out of 2 tests: 0
ARF10 575-693 (Arabidopsis thaliana, UniProt Q9SKN5); baseline: out of 4 tests: 1
IAA17 (Arabidopsis thaliana, UniProt P93830); baseline: out of 4 tests: 4
IAA32 (Arabidopsis thaliana, UniProt Q8RYC6); baseline: out of 4 tests: 0
IAA29 (Arabidopsis thaliana, UniProt Q93WC4); baseline: out of 4 tests: 0

Block 3
Target: CCNE1, cyclin fold, Cln2 fusion (human)
Method: yeast growth competition, sequencing
Sample: yeast
Setting: strong parent motif
Baseline: not given
Reading: higher = stronger binding
Quantity: normalised enrichment score
Parent: E2F1 docking peptide (human); PPVKRRLDLETDH; partner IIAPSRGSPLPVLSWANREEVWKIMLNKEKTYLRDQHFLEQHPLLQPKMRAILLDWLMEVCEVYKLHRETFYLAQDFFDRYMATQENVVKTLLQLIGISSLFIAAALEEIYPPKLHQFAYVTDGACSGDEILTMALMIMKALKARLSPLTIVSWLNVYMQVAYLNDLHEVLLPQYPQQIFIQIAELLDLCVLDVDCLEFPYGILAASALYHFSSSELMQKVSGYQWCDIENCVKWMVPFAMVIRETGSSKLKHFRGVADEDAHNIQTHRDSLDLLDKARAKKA
PPVGRRLDLETDH [K4G]: -0.361
PPVKRRLDLETYH [D12Y]: 2.72
PPVKRRLFLETDH [D8F]: 7.44
DPVKRRLDLETDH [P1D]: 0.24
PPVKRGLDLETDH [R6G]: 0.441
PPGKRRLDLETDH [V3G]: -0.174
PPHKRRLDLETDH [V3H]: 0.0887
PPVKRRRDLETDH [L7R]: -0.371

Block 4
Structure (SMILES): O=C1NC(=O)/C(=C/c2ccc3c(c2)OC(F)(F)O3)S1
Observed: enzyme activity
Action: inhibitor
Concentration: 0.5 µM
Baseline: control
Quantity: remaining activity
FGFR3 (Homo sapiens, UniProt P22607): 96.4%
MAPKAPK2 (Homo sapiens, UniProt P49137): 94.4%
MAPK3 (Homo sapiens, UniProt P27361): 91.6%
TBK1 (Homo sapiens, UniProt Q9UHD2): 93.3%
ARAF (Homo sapiens, UniProt P10398): 104%
ULK2 (Homo sapiens, UniProt Q8IYT8): 100%
TEK (Homo sapiens, UniProt Q02763): 91.9%
JAK3 (Homo sapiens, UniProt P52333): 98.6%
FRK (Homo sapiens, UniProt P42685): 93.4%
FGFR1 (Homo sapiens, UniProt P11362): 94.3%
ULK3 (Homo sapiens, UniProt Q6PHR2): 109%
MERTK (Homo sapiens, UniProt Q12866): 94.5%
WEE1 (Homo sapiens, UniProt P30291): 88.8%
MAP2K2 (Homo sapiens, UniProt P36507): 110%

A few entries again (block 4):
MERTK (Homo sapiens, UniProt Q12866): 94.5%
FRK (Homo sapiens, UniProt P42685): 93.4%
FGFR3 (Homo sapiens, UniProt P22607): 96.4%
MAP2K2 (Homo sapiens, UniProt P36507): 110%
JAK3 (Homo sapiens, UniProt P52333): 98.6%
